Measurements pooled from the literature.
Parts stem from different laboratories: compare values within a part only.

Study 1 — method: protein-binding microarray; molecule type: double-stranded DNA, one strand shown; sample: in vitro; tested at: 940 nM top; notes: 60-bp whole probe; together with: salmon DNA 0.4 mg/ml; relative to: random background probes; direction: higher = stronger binding; constant ends, left off below: GCCTAGCAC … GTCTTGATTCGCTTGACGCTGCTG
Target: Interferon regulatory factor 5, full length, phosphomimetic (IRF5, Homo sapiens, UniProt Q13568-2, residues 1-514, S451D/S453D/S456D/S462D)
`TCACTGCTACCCTCTGAAACTGTGCTA`: “fitted relative affinity” 0.671 z-score.
For `TTAGGACTGCTTCTCCCTTAGTGCTAG`, “fitted relative affinity” read 0.182 z-score.
For `GACGTTATCCTTCTCCTGACGTGCTAG`, “fitted relative affinity” read 0.504 z-score.
`GACGGAATGGGTCTCGGGACGTGCTAG` — result for “fitted relative affinity”: -0.0648 z-score.
For `ATAGGTTTCGGTATCGGTTAGTGCTAG`, “fitted relative affinity” read 14.9 z-score.
For `GACGATTTCAGTATCTAGACGTGCTAG`, “fitted relative affinity” read 1.01 z-score.
For `TTAGATCTCAGTCTCGAATAGTGCTAG`, “fitted relative affinity” read 1.14 z-score.
Under “fitted relative affinity”, `GACGATTTCAGTTTCGAAACGTGCTAG` is recorded as 5.3 z-score.
For `TTCGGTTTCGACACTGGGTTAGTGCTA`, “fitted relative affinity” read 7.99 z-score.
`GACGGTATCCTTCTCCGGACGTGCTAG` — result for “fitted relative affinity”: 0.968 z-score.
Under “fitted relative affinity”, `TTAGATATTGGGTATCGATTAGTGCTA` is recorded as 3.32 z-score.
`TTAGGTATGGGACTGGGTTAGTGCTAG` — result for “fitted relative affinity”: -0.177 z-score.
`CTTGCCCACTTCTGTGACAGGTGCTAG` — result for “fitted relative affinity”: -0.0949 z-score.
Under “fitted relative affinity”, `ACCGATTTCCTTCACCCACTGTGCTAG` is recorded as 1.06 z-score.
`GACGAACTGCGTCTCGAGACGTGCTAG` — result for “fitted relative affinity”: -0.211 z-score.
`GACGGACTGGGTATGGGGACGTGCTAG` — result for “fitted relative affinity”: 0.0195 z-score.
For `TTAGGTATCGGGTTTCGGCTAGTGCTA`, “fitted relative affinity” read 6.31 z-score.
`GACGATTTCGGGTTTCGGGACGTGCTA`: “fitted relative affinity” 3.24 z-score.

Study 2 — method: competition protein-binding microarray; molecule type: double-stranded DNA, one strand shown; sample: in vitro; tested at: 2 µM; together with: Cbf1 competitor, 0.05 µM; direction: higher = stronger binding
Target: Phosphate system positive regulatory protein PHO4, full length, GST-tagged (PHO4, Saccharomyces cerevisiae, UniProt P07270, residues 1-312)
UniProt P07270, sequence (whole entry, looked up): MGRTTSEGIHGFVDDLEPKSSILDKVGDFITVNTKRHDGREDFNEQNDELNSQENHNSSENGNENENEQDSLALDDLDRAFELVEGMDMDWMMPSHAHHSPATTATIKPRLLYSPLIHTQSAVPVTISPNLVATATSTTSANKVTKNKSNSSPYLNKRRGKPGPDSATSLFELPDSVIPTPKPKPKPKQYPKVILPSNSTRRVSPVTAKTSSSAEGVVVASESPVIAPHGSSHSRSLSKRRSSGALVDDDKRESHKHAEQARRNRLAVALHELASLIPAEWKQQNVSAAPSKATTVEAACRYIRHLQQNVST
Notes: whole 60-bp probe, lowest competitor level
`TGCGCAACAACTTGTCACGTGTTTTTATGTCTAGAAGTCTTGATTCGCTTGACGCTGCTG` gave a fluorescence intensity of 16200 a.u.
The fluorescence intensity of `CATACCCAACCTTGAGAGGTGGGTGAAGATATTTGTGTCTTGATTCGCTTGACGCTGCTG` is reported as 3880 a.u.
`CGTCCTAGCGATTGAACTGTGGGTGCCATGAGGAAGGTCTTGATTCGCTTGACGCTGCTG` has a fluorescence intensity of 5690 a.u.
`CGTCCTAGTGATTGGCAGGTGGGTGCCATGAGGAAGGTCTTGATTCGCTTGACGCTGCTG` gave a fluorescence intensity of 9100 a.u.
`CATACCCAACCTTGGTTTGTGGGTGAAGATATTTGTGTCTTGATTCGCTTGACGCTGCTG` has a fluorescence intensity of 3740 a.u.
`ATACACATAGAAGGACACGTGGAACTAACAGTCATTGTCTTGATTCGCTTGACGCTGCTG` has a fluorescence intensity of 17400 a.u.
The fluorescence intensity of `GCCAACAAGTGAACACACGTGAAAATGTTTTCAGTAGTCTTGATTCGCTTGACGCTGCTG` is reported as 12100 a.u.
`GACATCTTCAGTACCCATGTGTAATTTGGCGAATTTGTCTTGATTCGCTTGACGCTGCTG` gave a fluorescence intensity of 7730 a.u.
`CGGGGTTAAGTTTGGTTTGTGGGTGGCTTGCAGCAGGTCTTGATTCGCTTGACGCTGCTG` gave a fluorescence intensity of 4360 a.u.
With `AAATTACTAAGTTGTCACCGTACTTACCCCGTATGAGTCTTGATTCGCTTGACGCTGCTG` the fluorescence intensity was 4050 a.u.
`TTTGCAGGAAACAGCCGCGTGCCAGTTTGCTCGATAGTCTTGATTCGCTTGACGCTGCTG` gave a fluorescence intensity of 10500 a.u.
`TTGTGCTCGCTGGGCGGCGTGCCGATGCTTTCATCGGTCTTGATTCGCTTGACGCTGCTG` gave a fluorescence intensity of 7250 a.u.
For `AGATACATACATGAACATATGCACTTATAGCGCCCAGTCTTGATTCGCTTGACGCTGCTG`, the fluorescence intensity was 5570 a.u.
`CGGGGTTAAGTTTGGCTCGTGGGTGGCTTGCAGCAGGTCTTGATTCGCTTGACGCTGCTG` gave a fluorescence intensity of 10900 a.u.

Study 3 — method: RNA Bind-n-Seq; molecule type: RNA; sample: in vitro; tested at: 1 µM; notes: whole 134-nt RNA, ends assumed; together with: 150 mM KCl; relative to: input library; direction: higher = stronger binding
Target: Ras GTPase-activating protein-binding protein 1, C-terminal RGG region (G3BP1, Homo sapiens, UniProt Q13283)
UniProt Q13283, sequence (whole entry, looked up): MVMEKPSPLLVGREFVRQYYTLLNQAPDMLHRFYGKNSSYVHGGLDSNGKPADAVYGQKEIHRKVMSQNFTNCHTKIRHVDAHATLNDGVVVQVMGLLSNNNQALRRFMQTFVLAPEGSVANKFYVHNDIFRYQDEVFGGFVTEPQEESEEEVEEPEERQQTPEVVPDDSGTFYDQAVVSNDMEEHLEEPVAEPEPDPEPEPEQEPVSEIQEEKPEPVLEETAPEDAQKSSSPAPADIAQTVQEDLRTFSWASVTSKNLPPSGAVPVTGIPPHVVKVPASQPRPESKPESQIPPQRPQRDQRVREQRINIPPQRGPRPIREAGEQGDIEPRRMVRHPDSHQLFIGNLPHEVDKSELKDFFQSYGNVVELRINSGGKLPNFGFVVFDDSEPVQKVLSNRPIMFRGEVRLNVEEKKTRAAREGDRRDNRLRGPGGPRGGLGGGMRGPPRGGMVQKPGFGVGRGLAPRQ
The log2 enrichment of `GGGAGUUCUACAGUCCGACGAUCAAGUCCUGUGCUACACAUCGUAUGUACCGAAUCGGGGCCCGGGCCCGGGGCCCGGGAAAGUAUUAUGUUACGCCGUUCGGAUCUGCACUUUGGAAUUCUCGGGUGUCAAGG` is reported as -2.6.
The log2 enrichment of `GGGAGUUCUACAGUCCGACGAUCUGUGCUACACAUCGUAUGUACCGAAUCGUGUGUGUGUGUGUGUGUGUGUGUGUGUGUGUGUGUAAAGUAUUAUGUUACGCCGUUCGGAUCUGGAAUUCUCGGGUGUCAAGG` is reported as 1.72.
For `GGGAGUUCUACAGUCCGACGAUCCCUGUGCUACACAUCGUAUGUACCGAAUCGGGGAAAGGGGAAAAAAAGGGGAAAAAGGGGAAAGUAUUAUGUUACGCCGUUCGGAUCUGCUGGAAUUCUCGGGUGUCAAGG`, the log2 enrichment was 0.308.
`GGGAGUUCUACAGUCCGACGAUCGUCCUGUGCUACACAUCGUAUGUACCGAAUCGGGUUUUUGGGAAAAAAAGGGAAAGGGAAAGUAUUAUGUUACGCCGUUCGGAUCUGCACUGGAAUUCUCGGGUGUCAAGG` has a log2 enrichment of -0.5.
For `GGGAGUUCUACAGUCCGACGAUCCCUGUGCUACACAUCGUAUGUACCGAAUCGGGGCCCCCCGGGCCCCCCGGGCCCCCCGGGAAAGUAUUAUGUUACGCCGUUCGGAUCUGCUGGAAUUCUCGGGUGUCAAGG`, the log2 enrichment was -1.79.
For `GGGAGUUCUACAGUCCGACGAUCUUCCCUGAAGAUGAGAUCCCAGAGAAGGCCUGCAGGCGCCUGCUUGAAGGGAGGCGGCAGAAGAAGACGAAGAAGCAGAAGCGUCUGCUCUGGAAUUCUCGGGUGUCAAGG`, the log2 enrichment was -0.87.
For `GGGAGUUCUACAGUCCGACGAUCCCUCAAGUCCUGUGCUACACAUCGUAUGUACCGAAUCGGAAGGAAGGGAAGGAAAGUAUUAUGUUACGCCGUUCGGAUCUGCACUUCCAGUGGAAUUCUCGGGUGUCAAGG`, the log2 enrichment was -0.837.
`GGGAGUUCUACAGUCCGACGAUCCACAGACAACACGCACCCACACAGACACAGAGGGAAGGGGUAGGGAUGGGGACAGGGUGCACAGCAGGGCGGGGUAGGACCCCAGCCCCUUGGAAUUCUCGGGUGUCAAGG` gave a log2 enrichment of -0.145.
For `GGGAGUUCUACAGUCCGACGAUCUAACUUUAGAGGAGGAUCUGAUGGAUAUGGCAGUGGACGUGGAUUUGGGGAUGGCUAUAAUGGGUAUGGUGGAGGACCUGGAGGUGGCAAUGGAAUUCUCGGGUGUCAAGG`, the log2 enrichment was -0.637.

Study 4 — method: universal PBM; molecule type: double-stranded DNA, one strand shown; sample: in vitro; tested at: not given; direction: higher = stronger binding
Target: Sal-like protein 4, full length isoform B (SALL4, Homo sapiens, UniProt Q9UJQ4-2, residues 1-616)
Notes: 8-mer, flanks averaged, mean of replicates
With `ACAGATCT` the E-score was -0.0198.
For `CGGGTAAG`, the E-score was -0.252.
`CTCTGATC` gave an E-score of -0.157.
`AAGCCAGT` has an E-score of -0.0303.
With `TTACGGAA` the E-score was 0.0618.
`AGGCCGAC` gave an E-score of -0.408.
`CGTTGTAG` gave an E-score of 0.00387.
The E-score of `CGACTCTA` is reported as -0.172.
The E-score of `ACTGGATA` is reported as 0.11.
With `CTGTTGTA` the E-score was 0.0829.
The E-score of `AATCACCG` is reported as -0.093.
With `GCCCTCAC` the E-score was -0.162.
With `ATAAGGGG` the E-score was 0.0797.
For `AGTTGTAG`, the E-score was 0.0275.
The E-score of `AGCTATCG` is reported as -0.0149.
With `AGGACCGG` the E-score was -0.378.
For `ACCGTCCA`, the E-score was -0.165.

Study 5 — method: protein binding microarray; molecule type: double-stranded DNA, one strand shown; sample: in vitro; tested at: not given; relative to: not given; direction: higher = stronger binding
Target: Histone acetyltransferase KAT6A, winged helix 1, GST fusion (KAT6A, Homo sapiens, UniProt Q92794, residues 1-85)
Notes: 8-mer, flanks averaged, mean of 2 arrays, mostly near background
Construct (chain): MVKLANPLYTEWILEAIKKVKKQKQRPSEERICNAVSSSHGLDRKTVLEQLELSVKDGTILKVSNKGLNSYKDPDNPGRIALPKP
`TGCATACA` gave an E-score of -0.208.
`AAACCGCA` has an E-score of 0.0169.
`ATGCTTAC` gave an E-score of 0.00391.
The E-score of `CTCGGCAC` is reported as 0.217.
With `CCCGCAAA` the E-score was 0.0886.
For `AGACCCCG`, the E-score was 0.00012.
The E-score of `ACGCGCCA` is reported as 0.217.
The E-score of `GGCCTCAC` is reported as 0.0394.
With `AGGCAGTC` the E-score was 0.0282.
The E-score of `ATGTAGGA` is reported as -0.144.
`CAGAGGGG` has an E-score of -0.238.
`CGTAGCGC` has an E-score of 0.372.
With `ATCTCTCC` the E-score was -0.0226.
For `GGGCGCAA`, the E-score was 0.183.

Study 6 — method: RNAcompete; molecule type: RNA; sample: in vitro; tested at: 20 nM; notes: 7-mer, probes averaged, single round; relative to: mean of 7-mers; direction: higher = stronger binding
Target: PABPC1L2, full length, GST fusion (mouse, UniProt A0ABA7IW68)
Target sequence (chain): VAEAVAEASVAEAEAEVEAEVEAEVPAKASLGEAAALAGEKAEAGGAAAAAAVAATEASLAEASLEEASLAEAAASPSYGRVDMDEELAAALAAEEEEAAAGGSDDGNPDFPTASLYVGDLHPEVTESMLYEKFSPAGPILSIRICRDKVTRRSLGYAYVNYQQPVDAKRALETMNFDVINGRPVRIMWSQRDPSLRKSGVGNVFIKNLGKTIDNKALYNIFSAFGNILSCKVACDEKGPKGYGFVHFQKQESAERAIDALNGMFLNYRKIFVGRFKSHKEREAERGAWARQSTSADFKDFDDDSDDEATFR
`AUUUACG` has a 7-mer Z-score of 0.249.
With `AGUCGUA` the 7-mer Z-score was -0.271.
For `AUAUUUC`, the 7-mer Z-score was -0.199.
`GGAUCUG` has a 7-mer Z-score of -0.0935.
For `GAUCUCG`, the 7-mer Z-score was -0.269.
With `AGUCAGU` the 7-mer Z-score was -0.302.
With `GCCAAAG` the 7-mer Z-score was 0.149.
With `AAUGAUC` the 7-mer Z-score was -0.00108.
The 7-mer Z-score of `CCUAUAA` is reported as 0.122.
`AUUGAAC` has a 7-mer Z-score of -0.108.
For `CGUAACA`, the 7-mer Z-score was -0.217.
With `UGAAUUG` the 7-mer Z-score was -0.164.
With `GUUUAUG` the 7-mer Z-score was -0.293.
With `GUUCGGU` the 7-mer Z-score was -0.345.
With `ACACAGC` the 7-mer Z-score was -0.0645.
With `CCCACCC` the 7-mer Z-score was -0.411.
With `GAUCAUU` the 7-mer Z-score was -0.22.
`UAUCGGU` gave a 7-mer Z-score of -0.0754.
`UGCUUGC` gave a 7-mer Z-score of -0.215.
`CGUAUCU` has a 7-mer Z-score of -0.396.
`AAUCUUA` gave a 7-mer Z-score of 0.0968.
